Earlier results that unrelated publications cite.
Lines come from different studies, so protocols differ. Numbers after ± are the reported error.

FC(F)(F)c1ccccc1-c1nc(NCc2cccs2)c2ccccc2n1  remaining activity (PI5P4Kγ; inhibitor; 10 µM; reference: control): 8.8%
Cc1sc(-c2ccc(C(F)(F)F)cc2)nc1-c1nn[nH]c1C#N  HbA1c change from baseline (ZDF rat; 1 mg/kg/day, 6 weeks): 3.33 ± 0.13%
CC(C)C(=O)N1CCC(c2ccc(NC(=O)N3Cc4ccncc4C3)cc2)CC1  EC50 (PC-3): 0.002 µM
c1ccc2c(c1)CCCNC2c1c[nH]c2ccccc12 (stereo not drawn)  relative fluorescence index (Escherichia coli; efflux pump inhibition; AG100 AcrAB-TolC expressing; 50 µM; reference: untreated cells): 0.36
C[S+]([O-])c1ccc(Nc2nc(OCC3CCCCC3)c3nc[nH]c3n2)cc1 (stereo not drawn)  binding free energy (JNK1; more negative = stronger binding): -9.14 kcal/mol
c1ccc2c(C3NCCc4sccc43)c[nH]c2c1 (stereo not drawn)  IC50 (MRC-5 fibroblasts; cytotoxicity): > 100 µM
COc1ccc(Nc2ncnc3ccc(-c4ccc(S(=O)(=O)N5CCOCC5)cc4)cc23)cc1Cl  EC50 (Trypanosoma brucei; parasite growth): 0.82 µM
O=c1ccc(OCCCN2CCCCC2)nn1-c1ccc(Cl)c(Cl)c1  inhibition (adrenergic α1 receptor; 1.0 µM): 15.3 ± 1.2%
Fc1cccc(COc2ccc(Nc3ncnc4ccc(-c5ccccc5)cc34)cc2Cl)c1  EC50 (Trypanosoma brucei; parasite growth): 3.9 µM
COc1ccc(Nc2nc(Nc3ccc(OCC[18F])cc3)ncc2Br)cc1  tissue uptake (S180 tumour-bearing mice, muscle; intravenous, 120 min): 1.59 ± 0.27 %ID/g
CC[C@H](C)[C@H](NC(=O)[C@H](CC(C)C)NC(=O)[C@H](Cc1c[nH]cn1)NC(=O)[C@H](Cc1c[nH]cn1)NC(=O)[C@H](CC(C)C)NC(=O)[C@H](Cc1c[nH]c2ccccc12)NC(=O)[C@H](Cc1ccccc1)NC(=O)[C@H](CCCNC(=N)N)NC(=O)[C@H](CCCNC(=N)N)NC(=O)[C@H](CCCNC(=N)N)NC(=O)[C@H](CC(C)C)NC(=O)[C@H](CC(=O)O)NC(=O)[C@H](CCC(N)=O)NC(=O)[C@@H](NC(=O)[C@H](CO)NC(=O)[C@H](CCCCN)NC(=O)[C@@H](Cc1c[nH]c2ccccc12)NC(=O)[C@H](CC(C)C)NC(=O)[C@H](CC(=O)O)NC(=O)[C@H](Cc1c[nH]cn1)NC(=O)[C@H](CC(C)C)NC(=O)[C@@H](N)CC(C)C)[C@@H](C)CC)C(=O)N[C@@H](C)C(=O)N[C@@H](CCC(=O)O)C(=O)N[C@H](C(=O)N[C@@H](Cc1c[nH]cn1)C(=O)N[C@H](C(=O)N[C@@H](C)C(=O)N[C@@H](CCC(=O)O)C(=O)N[C@@H](Cc1ccc(O)cc1)C(N)=O)[C@@H](C)O)[C@@H](C)CC  trabecular bone mass (mouse; 500 nmol/kg twice daily, 14 days): decreased
c1ccc2c(c1)CCCNC2c1c[nH]c2ncccc12 (stereo not drawn)  relative fluorescence index (Staphylococcus aureus; efflux pump inhibition; ATCC 25923; 50 µM; reference: untreated cells): -0.16
CC(C)(C)OC(=O)N1CCN(S(=O)(=O)c2ccc(-c3ccc4ncnc(Nc5ccc(OCc6cccc(F)c6)c(Cl)c5)c4c3)cc2)CC1  EC50 (Trypanosoma brucei; parasite growth): 0.96 µM
CN(CCN)Cc1ccccc1Sc1ccccc1Cl  inhibition (SMYD2; enzyme activity; 100 µM): ~40%
Fc1cccc(COc2ccc(Nc3ncnc4ccc(-c5cccc(-n6cccn6)c5)cc34)cc2Cl)c1  EC50 (Trypanosoma brucei; parasite growth): 7.5 µM
COc1cc2c(cc1OC)C(c1c[nH]c3ccccc13)NCC2 (stereo not drawn)  relative fluorescence index (Staphylococcus aureus; efflux pump inhibition; ATCC 25923; 50 µM; reference: untreated cells): 0.17
O=C1c2ccc3c4ccc5c6c(ccc(c7ccc(c2c37)C(=O)N1CCN1CCCCC1)c64)C(=O)N(CCN1CCCCC1)C5=O  effective concentration (LNCaP; telomere shortening; long-term treatment): 1 µM
N#Cc1ccnc(N2C(=O)CC[C@H]2C(=O)N(c2cncc(F)c2)[C@H](C(=O)NC2CC(F)(F)C2)c2ccccc2Cl)c1  complete response rate (relapsed/refractory mIDH1 AML patients; dose not given, trial, interim): 22%
O=S(=O)(c1ccc(-c2ccc3ncnc(Nc4ccc(O)c(Cl)c4)c3c2)cc1)N1CCOCC1  EC50 (Trypanosoma brucei; parasite growth): 1.1 µM
c1ccc2c(c1)CCNC2c1c[nH]c2cccnc12 (stereo not drawn)  relative fluorescence index (Escherichia coli; efflux pump inhibition; AG100A AcrAB-TolC deleted; 50 µM; reference: untreated cells): 0.66
CS(=O)(=O)Nc1ccc(-c2cncc(-c3cccc4cc[nH]c34)c2)cc1  remaining activity (PI5P4Kγ; 1 µM): 0%
